# Assay results of several laboratories.
# Compare with care: the assays were run in different laboratories. Several values in a cell are separate wells, animals, samples, runs or records. Numbers after ± are the reported error.
Compound,target or system,test,system,conditions,scale,measurement,result
O=C(NC1CCOCC1)c1ccc(C2CCCCC2)cc1,,liver microsome stability,mouse liver microsomes,1 µM,,hepatic clearance,83 mL/min/kg
NC[C@H]1O[C@H](O[C@H]2[C@H](O)[C@@H](O[C@H]3O[C@H](Cn4cc(CNC(=S)Nc5ccc6c(c5)C(=O)OC65c6ccc(O)cc6Oc6cc(O)ccc65)nn4)[C@@H](O)[C@H](N)[C@H]3O)[C@H](N)C[C@@H]2N)[C@H](O)[C@@H](O)[C@@H]1O,MCF7,flow cytometry,,"5 µM, 24 h",,cellular uptake,17 ± 4.4%
CC(C)CC(OC1OC(CO)C(O)C(OC(=O)C=Cc2ccccc2)C1O)(C(=O)OCc1ccc(OC2OC(CO)C(O)C(O)C2O)cc1)C(O)C(=O)OCc1ccc(OC2OC(CO)C(O)C(O)C2O)cc1 (stereo not drawn),HaCaT,"cytotoxicity, MTT",,"48 h, 10% FBS",,IC50,> 200 µM
CC(C)C[C@@H]1NC(=O)[C@H](CO)NC(=O)[C@H](CC(=O)O)NC(=O)[C@@H]2CCCN2C(=O)[C@H]2CCCN2C(=O)[C@H](C(C)C)NC(=O)[C@H](CC(=O)O)NC(=O)[C@H](CC(N)=O)NC(=O)[C@H](CCCNC(=N)N)NC(=O)[C@H]([C@@H](C)O)NC(=O)[C@H](C(C)C)NC(=O)CCNC(=O)CCNC(=O)[C@H](Cc2ccccc2)NC(=O)[C@H](C(C)C)NC(=O)[C@H](CC(C)C)NC1=O,HEK-293T,subcellular fractionation LC-MS,cytoplasmic fraction,"20 µM, 2 h",,peptide amount per protein,not detected
N=C(N)NCCC[C@@H]1NC(=O)[C@H](CCCNC(=N)N)NC(=O)[C@@H](C(c2ccccc2)c2ccccc2)NC(=O)[C@H](Cc2c[nH]c3ccccc23)NC(=O)[C@@H](C(c2ccccc2)c2ccccc2)NC(=O)[C@@H](CCCNC(=N)N)NC(=O)[C@@H](CCCNC(=N)N)NC1=O,MRC5,"cell growth or viability, MTS",,"200 µg/mL, 24 h",,viability,76 to 81%
O=C(Nc1ccc(CNc2ncccn2)cc1)c1cc(-c2ccccc2)n(-c2ccccc2)n1,HeLa,cell growth or viability,,,,CC50,> 50 µM
COc1cc(/C=C/C=C2\SC(=S)NC2=O)ccc1O,HEK-293T,CellTiter-Glo,,"40 µM, 24 h, unit not given",relative to: untreated,viability,0.983 and 1.05
O=C(COCC(F)F)Nc1ccc([C@H]2[C@@H](F)[C@@H](F)C[C@@H](F)[C@H]2F)cc1,,liver microsome stability,mouse liver microsomes,1 µM,,hepatic clearance,79 mL/min/kg
O=C(OC[C@H]1O[C@@H](Oc2ccc(CO)cc2)[C@H](O)[C@@H](O)[C@@H]1O)c1ccc(O)cc1,HaCaT,"cytotoxicity, MTT",,"48 h, 10% FBS",,IC50,> 200 µM
O=C(c1cc(-c2ccccc2)n(-c2ccccc2)n1)N1CCC(N2CCCC2)CC1,HeLa,cell growth or viability,,,,CC50,> 100 µM
O=CCNCCOn1c(=O)n(OCCNCCO)c(=O)n(OCCNCCOn2c(=O)n(OCCNCCO)c(=O)n(OCCNCCO)c2=O)c1=O,HUVEC,"cell growth or viability, MTT",,"50 µg/mL, 48 h",,viability,25.5%
NCCNc1nnnc2c1sc1nc(NCCO)c3c(c12)CCCC3,cryopreserved rat hepatocytes,UHPLC-MS peak area,,"1 µM, 20 min",,percentage of drug-related material,2.2%
Cl.NCc1ccc2c(c1)CN(C1CCC(=O)NC1=O)C2=O (stereo not drawn),JHH7,CellTiter-Glo,,"concentration not given, 72 h",,minimum viability,32.3% and < 50%
Cc1cc(=O)c2c(O)c3c(O[C@@H]4O[C@H](CO)[C@@H](O)[C@H](O)[C@H]4O)cc(O)cc3cc2o1,HepaRG co-cultured with HK-2,MTT,,"16.67 µM, 48 h",relative to: untreated control,cell viability,86.4 ± 7.39%
N#Cc1cc(NC(=O)c2cc(-c3ccccc3)n(-c3ccccc3)n2)ccc1N1CCOCC1,HeLa,cell growth or viability,,,,CC50,> 50 µM
CC(=O)N[C@H](C(=O)N[C@H](C(=O)N[C@@H](CCCNC(=N)N)C(=O)N[C@@H](CC(N)=O)C(=O)N[C@@H](CC(=O)O)C(=O)N[C@H](C(=O)N1CCC[C@@H]1C(=O)N1CCC[C@H]1C(=O)N[C@@H](CC(=O)O)C(=O)N[C@@H](CO)C(=O)N[C@@H](CC(C)C)C(=O)N[C@@H](CC(C)C)C(=O)N[C@H](C(=O)N[C@@H](Cc1ccccc1)C(N)=O)C(C)C)C(C)C)[C@@H](C)O)C(C)C,HEK-293T,subcellular fractionation LC-MS,cytoplasmic fraction,"20 µM, 2 h",,concentration,not detected
Cc1cccc(N2CCC(C(=O)Nc3cccc(C(N)=O)c3)C2=O)c1 (stereo not drawn),HeLa,cell growth or viability,,,,CC50,> 50 µM
O=C1NC2(CC2)COc2ncc(F)cc2[C@H]2COCCN2c2ccn3ncc1c3n2,CHL,,,"75 µg/mL, 4 h, with rat liver S9",,structural aberrations with gaps,0.7%
Cc1cc(C(=O)N[C@H](C(=O)Nc2cccc(C(N)=O)c2)c2ccc(OCc3ccccc3)cc2)n(Cc2ccccc2)n1,HeLa,cell growth or viability,,,,CC50,> 50 µM
Cc1ccc(S(=O)(=O)N2N=Cc3ccsc3B2O)cc1,HEK-293T,"cell growth or viability, MTT",,48 h,,IC50,> 100 µM
NC(=O)c1cc(-c2ccc3c(c2)OCCO3)n(-c2ccccc2)n1,HeLa,cell growth or viability,,,,CC50,> 100 µM
CN1CCCNC(=O)c2cccc(c2)C(=O)NCCCN(C)CCCNc2cccc3c2C(=O)c2cccc(c2C3=O)NCCC1,HeLa,"cell growth or viability, CCK-8",,"15 nM, 48 h",,viability,94.8%
NC(=O)c1cccc(NC(=O)c2cc(O)n(-c3ccccc3)n2)c1,HeLa,cell growth or viability,,,,CC50,> 50 µM
CCCCCCCCCCCCOC(=O)c1ccc(O)cc1,Caco-2 monolayers,,,"5 µM, 1 h, apical to basolateral",,mass balance,81%
